Results collected from several papers.
Parts stem from different laboratories: compare values within a part only. Changes are numbered by the printed parent chain.

Study 1 — target: CCNE2, cyclin fold, Cln2 fusion (human); method: yeast growth competition, sequencing; matrix: yeast; setting: strong parent motif; baseline: not given; reading: higher = stronger binding; measurement: normalised enrichment score
Starting sequence: SCAPER docking peptide (human); SNARRSLNFGGST; partner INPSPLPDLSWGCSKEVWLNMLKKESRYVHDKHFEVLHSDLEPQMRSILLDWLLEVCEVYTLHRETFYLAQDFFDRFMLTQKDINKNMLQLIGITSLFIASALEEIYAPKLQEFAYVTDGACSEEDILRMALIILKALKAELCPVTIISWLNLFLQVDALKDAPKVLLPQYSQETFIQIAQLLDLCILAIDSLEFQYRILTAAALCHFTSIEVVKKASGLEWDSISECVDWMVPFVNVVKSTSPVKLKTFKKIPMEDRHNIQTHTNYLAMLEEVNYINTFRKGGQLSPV
Substitution = LNARRSLNFGGST [S1L]; value = 1.35
Substitution = ANARRSLNFGGST [S1A]; value = 1.06
Substitution = SNARRSLNFGGYT [S12Y]; value = 1.49

Study 2 — method: protein-binding microarray; molecule type: double-stranded DNA, one strand shown; matrix: in vitro; concentration: 250 nM; setting: 60-bp whole probe; with: salmon DNA 0.4 mg/ml; baseline: random background probes; reading: higher = stronger binding; measurement: log fluorescence; shared flanks, not repeated: GCCTAGCAC … GTCTTGATTCGCTTGACGCTGCTG
Target: Interferon regulatory factor 5, full length, phosphomimetic (IRF5, Homo sapiens, UniProt Q13568-2, residues 1-514, K96S/S451D/S453D/S456D/S462D)
Oligonucleotide = GAAAGGTACCATGGTGGCTCGTGCTAG; value = 0.916 z-score
Oligonucleotide = TCAGGTTTACCAGATCATACTGTGCTA; value = -0.396 z-score
Oligonucleotide = GACGGTATTCTTCTCCTGACGTGCTAG; value = 0.266 z-score
Oligonucleotide = TTAGGTTCCGACTTTCGGTTAGTGCTA; value = 9.1 z-score
Oligonucleotide = TCATTTCTAAAACTCTTACTGTGCTAG; value = 0.944 z-score
Oligonucleotide = TTAGATTTCGTGTTTCGATTAGTGCTA; value = 7.44 z-score
Oligonucleotide = TTAGATTTCGGGTTCCGATTAGTGCTA; value = 4.59 z-score
Oligonucleotide = ATATTTCCCAGAACTGGAGTGGTGCTA; value = -0.0144 z-score
Oligonucleotide = TGAGATTTCAGACTGGATTAGTGCTAG; value = 0.125 z-score

Study 3 — method: DHFR PCA, deep sequencing; matrix: yeast; with: (+)-ABA 0.032 µM; baseline: wild-type fitted maximum; reading: higher = stronger binding; measurement: relative binding score
Target: ABI1, truncated, D143A, DHFR fusion (Arabidopsis thaliana)
Setting: methotrexate growth selection, single substitutions
Starting sequence: PYL1, truncated, DHFR fusion (Arabidopsis thaliana); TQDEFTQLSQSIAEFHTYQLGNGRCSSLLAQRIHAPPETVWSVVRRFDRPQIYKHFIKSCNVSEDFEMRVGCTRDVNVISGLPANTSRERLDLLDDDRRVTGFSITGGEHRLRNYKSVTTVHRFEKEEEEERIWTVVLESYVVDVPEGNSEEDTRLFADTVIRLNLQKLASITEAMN; partner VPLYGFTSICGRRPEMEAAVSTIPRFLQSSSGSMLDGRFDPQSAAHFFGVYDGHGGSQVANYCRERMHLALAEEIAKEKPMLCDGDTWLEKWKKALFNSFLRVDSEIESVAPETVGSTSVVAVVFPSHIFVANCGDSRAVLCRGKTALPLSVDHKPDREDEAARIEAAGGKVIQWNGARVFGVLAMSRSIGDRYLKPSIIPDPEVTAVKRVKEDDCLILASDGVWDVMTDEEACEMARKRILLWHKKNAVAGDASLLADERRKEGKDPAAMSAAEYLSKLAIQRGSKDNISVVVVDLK
Substitution = I33M; value = 3.4%
Substitution = C25E; value = -2.09%
Substitution = M68R; value = -1.39%
Substitution = R155W; value = -0.631%
Substitution = S140T; value = 2.45%
Substitution = N177W; value = 14.8%
Substitution = T17V; value = -1.13%

Mixed results
Molecule = PhoQ, residues 284 288 289 292 302 303 AGGCYF; target = PhoP, residues 12 14 15 18 19 LYFRQ (Escherichia coli, UniProt P23836); test = Sort-seq, refers to: YFP reporter; test system = E. coli; conditions = PhoQ-PhoP variant library, with: 10 µM Mg2+; scale = baseline: high Mg2+ state, higher = stronger signaling; measurement = fold induction; value = 17.3

For quick reference, copied from above (study 2):
Oligonucleotide = TTAGATTTCGGGTTCCGATTAGTGCTA; value = 4.59 z-score
